Assay results of several laboratories.
Numbered parts are unrelated; each lists some results of a single study. Changes are numbered by the printed parent chain.

Block 1 — technique: RNAcompete; molecule type: RNA; medium: in vitro; concentration: 20 nM; notes: 7-mer, probes averaged, single round; reference: mean of 7-mers; reading: higher = stronger binding; endpoint: 7-mer Z-score
Target: PABPC1L2, full length, GST fusion (mouse, UniProt A0ABA7IW68)
Target sequence (chain): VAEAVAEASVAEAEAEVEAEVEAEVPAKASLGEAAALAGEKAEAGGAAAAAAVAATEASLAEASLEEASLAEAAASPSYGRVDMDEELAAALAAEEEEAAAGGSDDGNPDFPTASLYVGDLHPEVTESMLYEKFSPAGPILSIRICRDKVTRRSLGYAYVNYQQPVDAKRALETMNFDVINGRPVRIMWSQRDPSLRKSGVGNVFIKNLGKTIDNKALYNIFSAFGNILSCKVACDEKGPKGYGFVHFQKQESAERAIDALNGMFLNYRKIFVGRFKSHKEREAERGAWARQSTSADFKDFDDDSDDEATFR
Sequence = GCGGACU; result = 0.0968
Sequence = UACAGGU; result = -0.0554
Sequence = GAUUGGA; result = -0.0736
Sequence = AGCCAUG; result = -0.161
Sequence = AGCUCUC; result = -0.306

Block 2 — target: CEP164, C-terminal peptide (human); technique: DHFR complementation, deep sequencing; medium: yeast; reference: wild type; reading: higher = weaker binding; endpoint: binding free energy change
Notes: single substitutions, model-inferred values
Starting sequence: PDZK1, PDZ domain 2 (human); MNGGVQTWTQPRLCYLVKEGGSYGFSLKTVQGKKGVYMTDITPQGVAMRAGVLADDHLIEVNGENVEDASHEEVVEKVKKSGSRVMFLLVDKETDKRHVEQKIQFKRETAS; partner HNRVKVYRF
Substitution = L27E; result = 1.35 kcal/mol
Substitution = T9K; result = -0.119 kcal/mol
Substitution = L58Y; result = 0.963 kcal/mol
Substitution = Y23L; result = 0.617 kcal/mol
Substitution = F105T; result = -0.159 kcal/mol

Block 3 — technique: Sort-seq; measured: YFP reporter; medium: E. coli; notes: PhoQ-PhoP variant library; together with: 10 µM Mg2+; reference: high Mg2+ state; reading: higher = stronger signaling; endpoint: fold induction
Molecule: PhoQ, residues 284 288 289 292 302 303 SIHLQL
target = PhoP, residues 12 14 15 18 19 LHTVL (Escherichia coli, UniProt P23836); result = 1.97
target = PhoP, residues 12 14 15 18 19 NQCAL (Escherichia coli, UniProt P23836); result = 21.8
target = PhoP, residues 12 14 15 18 19 TQAML (Escherichia coli, UniProt P23836); result = 16.1

Block 4 — target: CCNB2, cyclin fold, Cln2 fusion (human); technique: yeast growth competition, sequencing; medium: yeast; notes: strong parent motif; reference: not given; reading: higher = stronger binding; endpoint: normalised enrichment score
Starting sequence: PKMYT1 docking peptide (human); SFEPRNLLSLFED; partner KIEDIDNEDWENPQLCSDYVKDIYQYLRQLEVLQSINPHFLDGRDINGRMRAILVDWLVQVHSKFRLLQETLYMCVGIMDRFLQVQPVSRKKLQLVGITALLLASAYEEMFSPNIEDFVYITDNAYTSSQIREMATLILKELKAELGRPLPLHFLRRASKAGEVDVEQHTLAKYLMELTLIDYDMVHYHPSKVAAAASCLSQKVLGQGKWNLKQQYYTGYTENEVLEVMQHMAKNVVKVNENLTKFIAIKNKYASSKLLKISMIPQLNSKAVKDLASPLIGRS
Substitution = SFEPRNLNSLFED [L8N]; result = 0.294
Substitution = SFRPRNLLSLFED [E3R]; result = 1.28
Substitution = SFEDRNLLSLFED [P4D]; result = -0.68
Substitution = SDEPRNLLSLFED [F2D]; result = 0.0505
Substitution = SFEPRNLLSLIED [F11I]; result = 0.153

Excerpt of the above (block 2):
Substitution = T9K; result = -0.119 kcal/mol
